Results from different studies.
Numbered parts are unrelated; each lists some results of a single study. Positions count from the first letter of the parent shown.

Block 1
Target: CCND1, cyclin fold, Cln2 fusion (human)
Technique: yeast growth competition, sequencing
Sample: yeast
Notes: strong parent motif
Reference: not given
Reading: higher = stronger binding
Endpoint: normalised enrichment score
Parent: INSM1 docking peptide (human); PKAIRKLHFEDEV; partner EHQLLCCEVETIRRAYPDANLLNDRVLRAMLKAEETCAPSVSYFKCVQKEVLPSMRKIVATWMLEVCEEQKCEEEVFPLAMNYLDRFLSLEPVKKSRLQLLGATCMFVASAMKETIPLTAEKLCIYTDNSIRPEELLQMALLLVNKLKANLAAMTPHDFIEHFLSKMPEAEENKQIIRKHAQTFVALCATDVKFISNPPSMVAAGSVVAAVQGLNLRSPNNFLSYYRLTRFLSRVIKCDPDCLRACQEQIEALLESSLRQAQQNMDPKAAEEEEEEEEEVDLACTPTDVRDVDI
R5T: 0.72
E12T: 4.55
K6W: 2.36
I4D: 0.0727
A3N: 0.106
K2R: 4.87
D11K: 2.46
I4V: 3.4
R5S: 0.379
L7G: -0.0931
I4F: 0.796

Block 2
Substance: PhoQ, residues 284 288 289 292 302 303 AEGLLW
Technique: Sort-seq
Measured: YFP reporter
Sample: E. coli
Notes: PhoQ-PhoP variant library
Added: 10 µM Mg2+
Reference: high Mg2+ state
Reading: higher = stronger signaling
Endpoint: fold induction
PhoP, residues 12 14 15 18 19 LHTVL (Escherichia coli, UniProt P23836): 12.3
PhoP, residues 12 14 15 18 19 TQAML (Escherichia coli, UniProt P23836): 9.92
PhoP, residues 12 14 15 18 19 NQCAL (Escherichia coli, UniProt P23836): 6.09

Block 3
Target: Interferon regulatory factor 5, full length, phosphomimetic (IRF5, Homo sapiens, UniProt Q13568-2, residues 1-514, K96S/S451D/S453D/S456D/S462D)
Technique: protein-binding microarray
Molecule type: double-stranded DNA, one strand shown
Sample: in vitro
Concentration: 250 nM
Notes: 60-bp whole probe
Added: salmon DNA 0.4 mg/ml
Reference: random background probes
Reading: higher = stronger binding
Endpoint: log fluorescence
Shared flanks, not repeated: GCCTAGCAC … GTCTTGATTCGCTTGACGCTGCTG
TCAAAAATCAAGTCTGGGACTGTGCTA: -0.574 z-score
GACGGTATGGACTATCGGGACGTGCTA: 0.967 z-score
CTGCCTTTCAATCCTAGGCCGTGCTAG: 0.414 z-score
AATGTTTTGTTTTTCATTATGTGCTAG: 2.62 z-score
GACGATTTCAGTTCCGTGACGTGCTAG: 1.12 z-score
TCACATTTGGTTAGCGTACTGTGCTAG: 0.341 z-score
TGCTTTCTCTTTCACTGCTGGTGCTAG: 7.84 z-score
GACGAACTGGGGACGGGAGACGTGCTA: -0.529 z-score
GATGGTATCCTTATCCTGACGTGCTAG: 0.172 z-score
AGGTGGGAGGGGACAGTGGTGTGCTAG: 0.00739 z-score
GACGATAGCAGTATCGAGACGTGCTAG: 2.27 z-score
TTAGGCCTCGGTATCGGTTAGTGCTAG: 4.04 z-score

Block 4
Target: RNA binding protein fox-1 homolog 2, RRM domain, GST-SBP tag (RBFOX2, Homo sapiens, UniProt O43251-10, residues 100-194)
Technique: RNA Bind-n-Seq
Molecule type: RNA
Sample: in vitro
Concentration: 365 nM
Notes: natural RNA segment, single round, ends assumed
Reference: no-protein control
Reading: higher = stronger binding
Endpoint: RBNS enrichment (R)
Shared flanks, not repeated: GGGAGUUCUACAGUCCGACGAUC … UGGAAUUCUCGGGUGCCAA
Target sequence (chain): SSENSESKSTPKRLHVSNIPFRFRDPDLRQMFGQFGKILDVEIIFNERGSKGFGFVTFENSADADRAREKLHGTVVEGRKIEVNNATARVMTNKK
UGCCGAAAACAGGAGCAAAUGGCGUUUUAUAAAUUAUUUUUUUGAAAUAAAGCUCUGUGUGCCUGGGUCUUCCCUGAGCAACAUGGAGUGGGGUGAGGUGGAGGGAUCCC: 0.881
UUCGGUUGGCUUCUCAGUGGAACCCAACUGAAGUUGUCUAAUUGCCUCUUCUCAGAGUUCAGGAAAAACAGUAGUGCCACUUGAGACCUCGUAGAGGAGGUAUACGUGGC: 0.295
UUUCAAAUAUUACCAGAUUAUCUCCUUAUGUAAAGGUAAAAUACUGCUUAAAAAUAUUUUCCUCACAAAAUUACUAUCAGGUCUGCCAUAAAUUCUUCCUAAGUUCUCUG: 0.44
UCCUAACGUUGCGUUAACAUAUUUGUAUAUAUGCUGGUCUCAACUUUGGAUCUAGACCUGGGGCCAGAUGUAUCUAGUGGAUAGACUUGCAGGGCCAUGCAGGCCGGACU: 0.527
AACCCCUUUUAAAAUCUAAUGUCUGGGCUUUGAGUAUUAGCUCAUUUAGGGUGGACAAAUGCAUUACUGUUUUCAAACUGCUCACAUUUAUUCAGUAUUUCUCCAAGUUG: 0.721
GGGAGUGGCCAGGCCAGAUUGAAGGUGAAUAUGGAGCAGUAGCAGAAGCCUCAUUCCAGAACCCAUCUGGCCAGAGAAGCAGCAGCAUCCUGGGGGAUGGCCGUGCAUGG: 15.8
UGCACUCUAAAGGGGAACAUUUUAAGGAAGUACUAGCAGCUUUGACUCUUCUAUGCUCCUGUUGGUUUACAAGCCACCAAGAAUGUCAGUGUUGAGAAUACGGCCUGGUA: 0.361
GACCGCAGCUUCUGGAGCCAGGGGUGCAGACCCUUCCAGAGUUCCCAGACCGUGUGACACAGCACAGCCUCCUUAAUGACACGUUGCCAUGUAACGCACCUGUAACUUAU: 0.413
GGGGGAGCCACUGGUUUCGCUCCUCCUGAAGGGAGCUCUGGACCCUCAGGGCCCCCACAGGGGAAGGACCCAGCUCCUGUACAUACAUUUUAUUGCAUGCACUGUGACCU: 0.547

For quick reference, copied from above (block 2):
PhoP, residues 12 14 15 18 19 LHTVL (Escherichia coli, UniProt P23836): 12.3
PhoP, residues 12 14 15 18 19 TQAML (Escherichia coli, UniProt P23836): 9.92
PhoP, residues 12 14 15 18 19 NQCAL (Escherichia coli, UniProt P23836): 6.09
